Assay results from different studies.
Observed: metabolic stability
Species: human

| SMILES | system | conditions | endpoint | value |
| --- | --- | --- | --- | --- |
| CCc1nc(N)nc(N)c1C#CC(C)c1cc(-c2cc(C)nc(C)c2)ccc1Cl (centres unmarked) | hepatocytes | 1 µM | scaled CLint | ~0.019 mL/min/kg |
| C=C(C)C(=O)Nc1ccc(-c2c(-c3ccc(Oc4nccc(C)n4)cc3)c3c(N)ncnc3n2C)cc1 | hepatocytes | – | hepatocyte CLint | < 2.2 µL/min/10⁶ cells |
| CCC/C(=C\C1=C(OC)C(=O)c2ccccc2C1=O)C(=O)NOC | liver microsomes | 1 µM, pH 7.4 | scaled CLint | 40.6 mL/min/kg |
| COc1ccc2c(c1OCc1ccccc1)C[C@@H](C(=O)O)N(c1nc3ccc(C#N)cc3o1)C2 | liver microsomes | 1 µM, pH 7.4 | scaled CLint | 1.5 mL/min/kg |
| CCN(CC)CC#CCNc1ccnc2cc(Cl)ccc12 | liver microsomes | 1 µM, pH 7.4 | scaled CLint | 159 mL/min/kg |
| COC[C@H]1C[C@H]2CSC(N)=N[C@@]2(c2ccc(F)cc2F)CO1 | liver microsomes | – | scaled CLint | 67 mL/min/kg |
| CCNCC#CCNc1ccnc2cc(Cl)ccc12 | liver microsomes | 1 µM, pH 7.4 | scaled CLint | 8 mL/min/kg |
| CCC/C(=C\C1=C(F)C(=O)c2ccccc2C1=O)C(=O)N(CC)CC | liver microsomes | 1 µM, pH 7.4 | scaled CLint | 2.9 mL/min/kg |
